Experimental data of several laboratories.
Protocols differ between the studies behind these lines. “And” joins repeats or separate records; there may be more than shown.

With `NCCCS(=O)(=O)O` the Tmax was 2 h (human, plasma; oral, 256.5 mg twice daily, day 7, capsule, fed, dosed days 2-7).
The Tmax of `O=C(O)C(O)(c1cccs1)c1cccs1` is reported as 3 h (item: metabolite; human, plasma; oral, 2 mg once daily, 5 days, median).
With `CCN(CC)C(=O)[C@@H]1C=C2c3cccc4[nH]cc(c34)C[C@H]2N(C)C1` the Tmax was 1.7 h (human, plasma; dose not given, after placebo pretreatment).
`OCc1ncc2n1-c1ccc(Cl)cc1C(c1ccccc1F)=NC2` has a Tmax of 0.5 h (human, plasma; 7.5 mg midazolam, day 1, median, metabolite of midazolam, with: midazolam 7.5 mg alone).
For `OCc1ncc2n1-c1ccc(Cl)cc1C(c1ccccc1F)=NC2`, the Tmax was 1.5 h (healthy human volunteers, plasma; 5 mg, day 11, fed, with: once daily, momelotinib 200 mg, days 4 to 11).
`COc1ccc(C[C@@H]2NC(=O)[C@H]([C@@H](C)O)NC(=O)[C@@H]3[C@@H]4CCN3C(=O)[C@@H]3Cc5cn(c6ccc(F)cc56)CCCCCCN(Cc5ccc(cc5)CCNC(=O)[C@]5(C)CCCN5C2=O)C(=O)CCC(=O)N[C@@H](C)C(=O)N[C@H](CNC(=O)CCCCC[N+](C)(C)C)C(=O)N[C@@H](Cc2cccc(c2)CNC(=O)CO4)C(=O)N3)cc1` gave a Tmax of 0.75 h (human, plasma; oral, 40 mg, fasted, with: sodium caprate 720 mg).
With `C[C@H](NC(=O)c1c(C(F)F)nn(C)c1Oc1cccc(C(F)(F)F)c1)c1ccc(C(=O)O)cc1` the Tmax was 2 h (human, plasma; 750 mg, cycle 1 day 8, median).
`N[C@@H](Cc1ccc(O)c(O)c1)C(=O)O` has a Tmax of 18 h (item: carbidopa; healthy human volunteers, plasma; subcutaneous, 24 h infusion, median, crossover).
The Tmax of `N.N.O=C([O-])C1(C(=O)[O-])CCC1.[Pt+2]` is reported as 0.5 h (item: non-protein-bound platinum; human, plasma ultrafiltrate; target AUC 2, median).
`O[C@H]1CCCN[C@@H]1CCCn1cnc2c(Cl)c(Cl)ccc21` has a Tmax of 4 h (healthy human, plasma; oral, 150 mg twice daily, steady state).
For `C=C(C)[C@@H]1CC[C@]2(NCCN3CCS(=O)(=O)CC3)CC[C@]3(C)[C@H](CC[C@@H]4[C@@]5(C)CC=C(C6=CC[C@@](COc7ncccc7C#N)(C(=O)O)CC6)C(C)(C)[C@@H]5CC[C@]43C)[C@@H]12`, the Tmax was 8.42 h (human, fed; oral, 100 mg tablet, median).
The Tmax of `O=c1ccc2ncc(=O)n3c2n1C[C@H]3CN1CCC(NCc2cc3c(cn2)OCCC3)CC1` is reported as 2.5 h (healthy human volunteers, plasma; oral, 1500 mg single dose, median, alone).
With `COC[C@@H](NC(C)=O)C(=O)NCc1ccccc1` the Tmax was 1 h (non-compartmental analysis; human healthy male, plasma; oral, 100 mg single).
`C[C@]1(CO)Cc2ncn(-c3ccc(C#N)c(Cl)c3)c2C(=O)O1` gave a Tmax of 1 h (human; oral, 10 mg, fasted, single dose, median).
`Cc1ncc2n1-c1ccc(Cl)cc1C(c1ccccc1F)=NC2` has a Tmax of 0.5 h (human, plasma; oral, 2 mg, day 1).
The Tmax of `OCc1ncc2n1-c1ccc(Cl)cc1C(c1ccccc1F)=NC2` is reported as 0.51 h (human; dose not given, metabolite of midazolam, with: midazolam alone).
`O=C(O)C(F)(F)C(F)(F)C(F)(F)C(F)(F)C(F)(F)C(F)(F)C(F)(F)F` gave a Tmax of 3 h (two-compartment model; human, plasma; oral, 50 mg single dose, geometric mean).
With `CCCCCCCCCCC(=O)O[C@H]1CC[C@H]2[C@@H]3CCC4=CC(=O)CC[C@]4(C)[C@H]3CC[C@]12C` the Tmax was 8 h and 4 h (item: testosterone; human, plasma; oral, 237 mg).
For `CCOC(=O)C1=C(CN2CCOCC2)NC(c2nccs2)=NC1c1ccc(F)cc1Br` (stereo not drawn), the Tmax was 3.17 h (human, healthy; high-fat diet).
`CCC(CC)COC(=O)[C@H](C)N[P@](=O)(OC[C@H]1O[C@@](C#N)(c2ccc3c(N)ncnn23)[C@H](O)[C@@H]1O)Oc1ccccc1` gave a Tmax of 0.5 h (human, plasma; intravenous, 100 mg single dose).
`COc1cc(C(=O)NC2CCN(C)CC2)c(F)cc1Nc1ncc(C(F)(F)F)c(Oc2cccc3c2C(=O)N(C)C3)n1` gave a Tmax of 2.01 h (human patients, plasma; oral, 100 mg single dose, median).
`COc1cc2nccc(Oc3ccc(NC(=O)NC4CC4)c(Cl)c3)c2cc1C(N)=O` gave a Tmax of 2 h (human, plasma; oral, 6.4 mg, 4 weeks, multiple doses, median).
`OCc1ncc2n1-c1ccc(Cl)cc1C(c1ccccc1F)=NC2` gave a Tmax of 1.5 h (humans, plasma; 3 mg of midazolam, midazolam alone).
`CC(=O)c1c(C)c2cnc(Nc3ccc(C4CCN(CCS(C)(=O)=O)CC4)cn3)nc2n(C2CCCC2)c1=O` has a Tmax of 1.38 h (human patients, plasma; oral, 100 mg twice daily, day 1 single dose, with: fulvestrant).

Some of these lines once more:
`COc1cc2nccc(Oc3ccc(NC(=O)NC4CC4)c(Cl)c3)c2cc1C(N)=O` gave a Tmax of 2 h (human, plasma; oral, 6.4 mg, 4 weeks, multiple doses, median).
`N[C@@H](Cc1ccc(O)c(O)c1)C(=O)O` has a Tmax of 18 h (item: carbidopa; healthy human volunteers, plasma; subcutaneous, 24 h infusion, median, crossover).
For `OCc1ncc2n1-c1ccc(Cl)cc1C(c1ccccc1F)=NC2`, the Tmax was 1.5 h (healthy human volunteers, plasma; 5 mg, day 11, fed, with: once daily, momelotinib 200 mg, days 4 to 11).
